Measured values gathered from unrelated publications.
Parts stem from different laboratories: compare values within a part only.

Sample 1
Target: Interferon regulatory factor 5, full length, phosphomimetic (IRF5, Homo sapiens, UniProt Q13568-2, residues 1-514, S451D/S453D/S456D/S462D)
Technique: protein-binding microarray
Form: double-stranded DNA, one strand shown
Sample: in vitro
Concentration: 940 nM top
Setting: 60-bp whole probe
With: salmon DNA 0.4 mg/ml
Reference: random background probes
Reading: higher = stronger binding
Constant ends, left off below: GCCTAGCAC … GTCTTGATTCGCTTGACGCTGCTG
Under “fitted relative affinity”, `GACGGACTGGGTTTCGAGACGTGCTAG` is recorded as 2.12 z-score.
`TCACTTTACTTTCTTTTACTGTGCTAG` — result for “fitted relative affinity”: 2.98 z-score.
For `TTAGGACTGGGTCTCGGGTAGTGCTAG`, “fitted relative affinity” read 0.135 z-score.
`TTAGGACTGCTTCTCCTTTGGTGCTAG`: “fitted relative affinity” -0.31 z-score.
`TATCAGCAAACTTTTCTTGAGTGCTAG` — result for “fitted relative affinity”: 0.853 z-score.
`ACCGCATTCGAATTCAGAATGTGCTAG`: “fitted relative affinity” -0.317 z-score.
`TTAGGACTGGACTATCGGTTAGTGCTA`: “fitted relative affinity” -0.225 z-score.
`GACGGACTGGACTATCGGGAGGTGCTA`: “fitted relative affinity” -0.226 z-score.
`TCATATTCAGGTATATAACTGTGCTAG`: “fitted relative affinity” 0.512 z-score.
For `GAAAGAATCACAACTAGGAAGGTGCTA`, “fitted relative affinity” read 0.206 z-score.
`TTAGGTCTCATACTGCTTTAGTGCTAG` — result for “fitted relative affinity”: 0.846 z-score.
`TTAGATTTCGGGTATAGATTAGTGCTA`: “fitted relative affinity” 1.45 z-score.
`GACGGTATTGGTATCGGGACGTGCTAG`: “fitted relative affinity” 3.4 z-score.
`TTAGGTTTCTGGACTGGGTTAGTGCTA`: “fitted relative affinity” 2.48 z-score.
For `TCATCTCTGCCACTCAGACTGTGCTAG`, “fitted relative affinity” read 0.698 z-score.
Under “fitted relative affinity”, `GACGATATGAGTCTCGAGACGTGCTAG` is recorded as 0.855 z-score.
`GACGATCTCAGATTGGAGACGTGCTAG` — result for “fitted relative affinity”: -0.517 z-score.
`TTAGATATCAGTTCCGATTAGTGCTAG`: “fitted relative affinity” 1.24 z-score.
Under “fitted relative affinity”, `TTAGGACTGCTTATCCTTAAGTGCTAG` is recorded as -0.212 z-score.
`TCACATTTTGGTTTTCCACTGTGCTAG`: “fitted relative affinity” 1.05 z-score.
`TTAGCACTGGGGTTTCGGTTAGTGCTA` — result for “fitted relative affinity”: 5.82 z-score.
For `GCCGGTTTCGGTATCGGGACGTGCTAG`, “fitted relative affinity” read 15.3 z-score.
`TTAGGTCTCGGTTTCGGTTCGTGCTAG`: “fitted relative affinity” 9.49 z-score.
Under “fitted relative affinity”, `AACGGTTTCGGTTCCGGGACGTGCTAG` is recorded as 12.7 z-score.
`GACGATCTCAGTCTCGAGAAGTGCTAG`: “fitted relative affinity” 1.14 z-score.

Sample 2
Target: Fragile X messenger ribonucleoprotein 1, C-terminal low-complexity region (Fmr1, Mus musculus, UniProt P35922)
Technique: RNA Bind-n-Seq
Form: RNA
Sample: in vitro
Concentration: 200 nM
Setting: whole 134-nt RNA, ends assumed
With: 150 mM KCl
Reference: input library
Reading: higher = stronger binding
The log2 enrichment of `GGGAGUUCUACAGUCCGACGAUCACCAUGCAGGUGGGCAUCUUUGGGAAGUGGGGCAAGGGGGGGAUAGGGAGGGGGGUAACACUUUGGGAACAAAUGGUCCCAGGUCGUUUCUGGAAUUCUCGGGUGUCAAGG` is reported as 0.716.
With `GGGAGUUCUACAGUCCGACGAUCCUCAAGUCCUGUGCUACACAUCGUAUGUACCGAAUCGGUUUGGUUUGGUUUGGGAAAGUAUUAUGUUACGCCGUUCGGAUCUGCACUUCCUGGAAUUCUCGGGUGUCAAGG` the log2 enrichment was -0.465.
For `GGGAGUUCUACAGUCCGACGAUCUGGCCCUGGUGGCAUGCGGGGAGGAAGAGGUGGCCUCAUGGAUCGUGGGGGUCCCGGUGGAAUGUUCAGAGGUGGCCGUGGUGGAGACAGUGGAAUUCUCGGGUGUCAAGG`, the log2 enrichment was 0.184.
The log2 enrichment of `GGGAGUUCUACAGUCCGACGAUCCAAGUCCUGUGCUACACAUCGUAUGUACCGAAUCGGAAAAAAAGGUUUGGUUUGGAAAGUAUUAUGUUACGCCGUUCGGAUCUGCACUUCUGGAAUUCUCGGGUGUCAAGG` is reported as -0.864.
The log2 enrichment of `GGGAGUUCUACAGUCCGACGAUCCUCAAGUCCUGUGCUACACAUCGUAUGUACCGAAUCGGUUGGGUUGGGUUGGGGAAAGUAUUAUGUUACGCCGUUCGGAUCUGCACUUCCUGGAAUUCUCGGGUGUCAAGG` is reported as 0.646.
`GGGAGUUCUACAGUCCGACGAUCUCCUGUGCUACACAUCGUAUGUACCGAAUCGGGGAAAGGGGAAAAAGGGGUUUUUGGGGAAAGUAUUAUGUUACGCCGUUCGGAUCUGCAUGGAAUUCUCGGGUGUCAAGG` has a log2 enrichment of 0.609.
`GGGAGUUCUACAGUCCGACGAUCUGCUGCGGAAGGGCUCUGGCACUCUGUGUGAGGCCUUGCUGAUGGUGCAGGCCUUCCACGCCAACAUCAUCUUCCCCAACAAGCAAGAGCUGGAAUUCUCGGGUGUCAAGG` gave a log2 enrichment of 0.0801.
For `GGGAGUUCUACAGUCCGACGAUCUGGUGUUCAUAUUGCUGAUGUGAGCCAUUUUAUUAGGCCAGGAAAUGCCUUGGAUCAAGAAUCAGCCAGAAGAGGAACAACUGUGUAUCUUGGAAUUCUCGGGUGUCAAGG`, the log2 enrichment was -0.206.
The log2 enrichment of `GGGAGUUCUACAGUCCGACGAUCUGCCUCGGGAGGAGCUGUUUGUGACAUCCAAGCUGUGGAACACCAAGCACCACCCCGAGGAUGUGGAGCCUGCCCUCCGGAAGACUCUGGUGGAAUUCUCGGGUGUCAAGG` is reported as -1.56.
The log2 enrichment of `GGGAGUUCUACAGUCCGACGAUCCACAGACAACACGCACCCACACAGACACAGAGGGAAGGGGUUGGGAUGGGGACAGGGUGCAAAACAGGGCGGGGUAGGACCCCAGCCCCUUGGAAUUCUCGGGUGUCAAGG` is reported as 1.17.

Sample 3
Effect on: peptide binding
Form: peptide
Sample: yeast competitive growth
With: B2-Cln2 chimera
Reading: direction not given
With `RKLDLEGIGR` the enrichment score was -0.0717.
For `GFGFLLFICKLTF`, the enrichment score was -0.0932.
For `ARKRLELGNLGNPQ`, the enrichment score was -0.623.
With `RKLHFEDEVT` the enrichment score was 0.153.
The enrichment score of `LRRKLFLDGNGSIS` is reported as -1.11.
For `PPKPLKKLRFDIEGSD`, the enrichment score was 0.723.
`LRRQLSFSED` gave an enrichment score of 2.57.
`KVKRRLDLDIDGLQKE` gave an enrichment score of 0.175.
`RRVLCFDS` has an enrichment score of -0.539.

Sample 4
Target: Sal-like protein 4, full length isoform B (SALL4, Homo sapiens, UniProt Q9UJQ4-2, residues 1-616)
Technique: universal PBM
Form: double-stranded DNA, one strand shown
Sample: in vitro
Concentration: not given
Setting: 8-mer, flanks averaged, mean of replicates
Reading: higher = stronger binding
`ACGTTGGA` has an E-score of -0.143.
With `ATGAAGGG` the E-score was -0.0143.
`GACCTGAC` gave an E-score of -0.267.
The E-score of `AACGATTG` is reported as 0.154.
`TAGAGCAA` gave an E-score of -0.0285.
For `ATGAGCAG`, the E-score was 0.0111.
`TCAACCAA` has an E-score of 0.0239.
For `AATTGATC`, the E-score was 0.0558.
The E-score of `ATTTAAGC` is reported as 0.168.
For `TAGTATGA`, the E-score was 0.33.
`CCTGTTTA` gave an E-score of 0.0527.
The E-score of `ATTGGAAG` is reported as 0.0514.
For `TCCGCGGA`, the E-score was -0.15.
With `GCCATAGC` the E-score was 0.0329.
With `CCTCTTTC` the E-score was -0.223.
The E-score of `GCACTGCA` is reported as -0.206.
With `AATACTTA` the E-score was 0.295.
With `CAGCCCAC` the E-score was -0.309.
With `ACGGGTAT` the E-score was 0.111.
The E-score of `AGATCTAC` is reported as 0.114.
For `CTACCTAA`, the E-score was 0.0348.
For `ACAACAAG`, the E-score was 0.101.
`GCTTATAA` gave an E-score of 0.286.
`ATCTCCAG` gave an E-score of -0.00186.
The E-score of `GAAGGCAC` is reported as -0.137.

Sample 5
Target: Histone acetyltransferase KAT6A, winged helix 1, GST fusion (KAT6A, Homo sapiens, UniProt Q92794, residues 1-85)
Technique: protein binding microarray
Form: double-stranded DNA, one strand shown
Sample: in vitro
Concentration: not given
Setting: 8-mer, flanks averaged, mean of 2 arrays, mostly near background
Reference: not given
Reading: higher = stronger binding
Residues (chain): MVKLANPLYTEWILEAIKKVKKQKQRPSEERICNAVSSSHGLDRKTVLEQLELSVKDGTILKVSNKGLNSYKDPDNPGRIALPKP
`ATTGGATC` gave an E-score of -0.0904.
`AGAATAAT` gave an E-score of -0.273.
With `ACCTTACA` the E-score was -0.1.
`AATCGAGG` gave an E-score of -0.189.
For `GAAGGCCA`, the E-score was -0.138.
The E-score of `AGTACGAT` is reported as -0.12.
With `GAAGAGTA` the E-score was 0.0725.
The E-score of `AAAGCGCG` is reported as 0.423.
`TGTAGAAA` has an E-score of -0.121.
The E-score of `GGGAAGAC` is reported as 0.197.
`CCTTGGAA` gave an E-score of -0.221.
The E-score of `CGACCCGC` is reported as 0.395.
`CTTCGGGC` gave an E-score of 0.0267.
For `CTCCAAGA`, the E-score was -0.226.
The E-score of `AACCCAGA` is reported as -0.25.
The E-score of `ACGGTTTA` is reported as 0.0488.

Excerpt of the above (sample 3):
For `ARKRLELGNLGNPQ`, the enrichment score was -0.623.
For `GFGFLLFICKLTF`, the enrichment score was -0.0932.
The enrichment score of `LRRKLFLDGNGSIS` is reported as -1.11.
`LRRQLSFSED` gave an enrichment score of 2.57.
With `RKLHFEDEVT` the enrichment score was 0.153.
With `RKLDLEGIGR` the enrichment score was -0.0717.
`RRVLCFDS` has an enrichment score of -0.539.
`KVKRRLDLDIDGLQKE` gave an enrichment score of 0.175.
For `PPKPLKKLRFDIEGSD`, the enrichment score was 0.723.
